Measured values pooled from the literature.
Numbered parts are unrelated; each lists some results of a single study.

Study 1 — technique: protein-binding microarray; form: double-stranded DNA, one strand shown; matrix: in vitro; concentration: 940 nM top; setting: 60-bp whole probe; added: salmon DNA 0.4 mg/ml; reference: random background probes; direction: higher = stronger binding; shared flanks, not repeated: GCCTAGCAC … GTCTTGATTCGCTTGACGCTGCTG
Target: Interferon regulatory factor 5, full length, phosphomimetic (IRF5, Homo sapiens, UniProt Q13568-2, residues 1-514, S451D/S453D/S456D/S462D)
Sequence | fitted relative affinity [z-score]
GCCGGACTGGGTCTCGGGACGTGCTAG | -0.362
TTAGGGATCGACTATCGGTTAGTGCTA | 0.37
CTCCCCCTCAGATCTGCCGTCGTGCTA | -0.23
TCACCTCTCCTCTCAGGAACTGTGCTA | 0.242
GACGGTTTCCGGTATCGGGACGTGCTA | 2.77
ATACCTTAGGTTTTCTGGTTGTGCTAG | 0.284
ACAGGTTCTCTTTTATTTTTGTGCTAG | 1.68
GACGGTTTCAGACTGGGGACGTGCTAG | 1.93
TCAGGTTTGTACACCGCACTGTGCTAG | -0.294
TCATTTTTTTTATTTATACTGTGCTAG | 1.6
AAAACTCTTTATTTAAGCTCGTGCTAG | 0.67
GACGTTTTCGACTTTCGGGACGTGCTA | 1.46
GACGGTCTCGGTATGGGGACGTGCTAG | 3.94

Study 2 — technique: competition protein-binding microarray; form: double-stranded DNA, one strand shown; matrix: in vitro; concentration: 2 µM; added: Cbf1 competitor, 0.05 µM; direction: higher = stronger binding
Target: Phosphate system positive regulatory protein PHO4, full length, GST-tagged (PHO4, Saccharomyces cerevisiae, UniProt P07270, residues 1-312)
Setting: whole 60-bp probe, lowest competitor level
Residues (chain): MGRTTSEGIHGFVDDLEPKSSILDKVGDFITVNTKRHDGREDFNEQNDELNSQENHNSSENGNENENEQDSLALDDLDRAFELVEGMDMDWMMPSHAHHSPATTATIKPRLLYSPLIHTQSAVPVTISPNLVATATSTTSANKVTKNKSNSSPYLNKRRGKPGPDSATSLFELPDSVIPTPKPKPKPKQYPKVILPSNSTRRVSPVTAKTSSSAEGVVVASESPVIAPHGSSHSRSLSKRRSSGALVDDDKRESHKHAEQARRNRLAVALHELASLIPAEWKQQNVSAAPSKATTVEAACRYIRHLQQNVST
Sequence | fluorescence intensity
ATTTTCTCTGATTTTCTCGTGCGGACAATAAGTAAAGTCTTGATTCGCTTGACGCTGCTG | 7340 a.u.
CTTCTGTAAATTTGGTGAGTGGGTGGACGCGCCCCGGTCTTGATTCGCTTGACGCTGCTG | 4370 a.u.
CGTCCTAGTGATTGCGGTGTGGGTGCCATGAGGAAGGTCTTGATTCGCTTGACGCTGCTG | 7690 a.u.
GCAAAGAAATAGGATCGCGTGGAACTGGATCGTACAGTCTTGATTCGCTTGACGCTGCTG | 5840 a.u.
CAGTATTTATCAGTTCTCGAGCAAGCAGAGAAAAGTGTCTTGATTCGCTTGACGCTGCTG | 3900 a.u.
TGGAGAAATCTTGCATCCGTGCCGACCACGGCATTTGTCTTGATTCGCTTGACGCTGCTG | 6010 a.u.
CGGGGTTAAGTTTGTCACTCTACTTGCTTGCAGCAGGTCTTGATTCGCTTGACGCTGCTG | 3470 a.u.
ATTGCCTTTGGTGTACTCATGACAAGGGTATATTTTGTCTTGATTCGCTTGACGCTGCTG | 4260 a.u.
GTCTTGTCTCATTGTCACCATACTTTCCCCACTTCAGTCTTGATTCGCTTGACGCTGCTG | 4770 a.u.
CTTTTAGTAAACCGTCACGTGCAAAAGATTCTTTAGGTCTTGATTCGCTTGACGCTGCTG | 16600 a.u.
CACTGTTCTTTAAAGCACGTGCTTTTGGTACCAACCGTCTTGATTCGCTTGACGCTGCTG | 19100 a.u.
TGCATTCTGAAGTTACACGTCACTAACCAGCACTATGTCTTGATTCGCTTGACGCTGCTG | 4720 a.u.
AAATTACTAAGTTGGGAGGTGGGTGACGCCGTATGAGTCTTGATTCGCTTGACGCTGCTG | 4510 a.u.
CCACCGCCGGATGCCTACGTGGTGAAGGGAGACAAAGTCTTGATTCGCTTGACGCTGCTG | 6710 a.u.
CTAACGAAGGTTTGCATCGTGGGTGACAAGCCAAGTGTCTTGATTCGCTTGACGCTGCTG | 11200 a.u.
GCTACGCATTCCCTTCGCGTGAGACCATCAAATCTCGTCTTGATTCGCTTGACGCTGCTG | 4600 a.u.
CGTCACTTGCCAGGTCACATGGGCAAATGGCCAGCGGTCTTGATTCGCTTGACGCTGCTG | 10100 a.u.
CTTAAATGAAACTGACGCGTGGCCGTAGATTCCAACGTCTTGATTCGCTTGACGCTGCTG | 8980 a.u.
AAAGCGGTAATTTTTCACGTGTCATCACATATCTATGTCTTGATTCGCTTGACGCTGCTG | 14100 a.u.
CTTCTGTAAATTTGGCCCGTGGGTGGACGCGCCCCGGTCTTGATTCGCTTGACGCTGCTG | 8520 a.u.
TGAATGACTTGTTGGAACGTGGTGAAATTTCTTTGGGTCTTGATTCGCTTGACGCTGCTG | 12200 a.u.
GTCTTGTCTCATTGCGGCGTGGGTGTCCCCACTTCAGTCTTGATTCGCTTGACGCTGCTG | 7230 a.u.
CTTCTTGTCACCGCTCCCGTGAACGGCCCATGCTACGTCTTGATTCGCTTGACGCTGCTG | 6150 a.u.
CTACGTACAAGTGTATACGTGCCAGTATTTGGACGCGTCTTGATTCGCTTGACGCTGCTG | 7650 a.u.
GGAAATCGAACATTTCACGTTCTGCAGAATTTAAAGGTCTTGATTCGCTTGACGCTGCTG | 8790 a.u.

Study 3 — technique: RNA Bind-n-Seq; form: RNA; matrix: in vitro; concentration: 365 nM; reference: no-protein control; direction: higher = stronger binding
Target: RNA binding protein fox-1 homolog 2, RRM domain, GST-SBP tag (RBFOX2, Homo sapiens, UniProt O43251-10, residues 100-194)
Setting: natural RNA segment, single round, ends assumed
Construct (chain): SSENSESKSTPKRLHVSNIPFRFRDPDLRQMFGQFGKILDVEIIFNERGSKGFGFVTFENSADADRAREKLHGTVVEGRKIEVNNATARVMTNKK
Sequence | RBNS enrichment (R)
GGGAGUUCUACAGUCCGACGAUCACAAUGACACUCAGCGGUCAUGUCUGGACAUGAGUGCCCAGGGAAUAUGCCCAAGCUAUGCCUUGUCCUCUUGUCCUGUUUGCAUUUCACUGGGAGCUUGCACUAUGCAGUGGAAUUCUCGGGUGCCAA | 0.552
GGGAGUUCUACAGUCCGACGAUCUUGGGUUAUUUUUUUACACAGCUGGUAAAGAGGAUUAUUCUGAAGAGUCAAAUGGACAGUAGAAGCAUGUGAUAGCCAGAAGGGCUGAGGCUGAUCUGGGUCCCCCAAAGUGGAAUUCUCGGGUGCCAA | 7.12
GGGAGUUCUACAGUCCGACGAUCAGCGGGCUAGGGCCCAGGGCAGCUUGCCCGUGCUGCUGUGCAGUUCUUGCCUCCCUCACGGGGCGUCACCCCCAGCCCAGCUCCGUUGUACAUAAAUGCCUUGUGGCAGAUGGAAUUCUCGGGUGCCAA | 0.571
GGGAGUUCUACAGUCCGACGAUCUCUCUCAGGGAAAAAACAUGCAGUCUUCAAGCAUCUUCCAUGUACAUUCUAUCUGGGUGAACACCUUCAUUCUGGUAGAGCACCUAACACUUUAACAGCUGUUCCCGAAAUGGAAUUCUCGGGUGCCAA | 0.583
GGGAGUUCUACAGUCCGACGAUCGCUAUUAUUAGGCUUGCUUGUUACACACACAGGUCUAAGCCUAGUAUGUCAAUAAAGCAAAUACUUACUGUUUUGUUUCUAUUAAUGAUUCCCAAACCUUGUUGCAAGUUUGGAAUUCUCGGGUGCCAA | 0.345
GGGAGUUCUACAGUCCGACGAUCCGGCCGUUUCCUUUCUUUAGCCAGCCGUCCUGGUACUGUAGCUUAGGGGUUGAUGGUGGAUGAAAUUGAUUUCUGGCUGGUUACUAAGGUGCCUGCUAGCCAUUGUAUAAUGGAAUUCUCGGGUGCCAA | 0.678
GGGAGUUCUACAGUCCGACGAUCUAUUUCUUCCCUCACUGCUGAUUCUUAGAUAGAAACCAUUCUUUAUAUUUGAUAGACUGCUUUCAGAAAACCCUUAUCAACAAGUGUACAAUACUUAUCUAAAACUAUACUGGAAUUCUCGGGUGCCAA | 0.474
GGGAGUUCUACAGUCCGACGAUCCCUAAGAAGUCUUCAAAAAUAGAUUGUACACCCGGUUUGACCUCACCCCCAUCCCACUGCUCUCUCUGAGCUGCAGCUGUAUGUAUAGCAGAUUAGGGGCUCCCUGGUUAUGGAAUUCUCGGGUGCCAA | 0.512
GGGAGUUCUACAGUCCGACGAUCGAGCCCGACUGCCCUCGGGCACACGGCCUGCCUGUCGCAUGUUUGUGUCUGCCUCGUUCCCUCCCCUGUGCCUGUGUCUGCAGAAAAACAAGACCAGAUGUGAUUUGUUAUGGAAUUCUCGGGUGCCAA | 19.9

Study 4 — target: UBE2E3 UBC core domain (UniProt Q969T4); technique: yeast two-hybrid; matrix: yeast; setting: mostly zero background; reference: not given; direction: higher = stronger interaction
Chain of UniProt Q969T4 (whole entry, looked up): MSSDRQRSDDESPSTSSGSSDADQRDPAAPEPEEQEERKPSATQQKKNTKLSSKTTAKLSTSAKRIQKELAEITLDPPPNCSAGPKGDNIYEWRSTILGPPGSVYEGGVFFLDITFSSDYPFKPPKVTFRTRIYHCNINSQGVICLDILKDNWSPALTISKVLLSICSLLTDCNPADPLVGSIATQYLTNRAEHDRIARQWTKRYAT
B1: PHF7 RING domain (UniProt Q9BWX1); chain IQHGHVGEESCILCCEDLSQQSVENIQSPCCSQAIYHRKCIQKYAHTSAKHFFKCPQCNNRKEFPQEML
B2: TRIM55 RING domain (UniProt Q9BYV6); chain TMDNLEKQLICPICLEMFTKPVVILPCQHNLCRKCASDIFQASNPYLPTRGGTTMASGGRFRCPSCRHEVVLDRHG
B3: RNF112 RING domain (UniProt Q9ULX5); chain QPMAPRELPTCSICLERLRDPISLDCGHDFCIRCFSTHRLPGCEPPCCPECRKICKQKRGLR
B4: RNF32 RING domain (UniProt Q9H0A6); chain SLLQGDSVQPCPICKEEFELRPQVLLSCSHVFHKACLQAFEKFTNKKTCPLCRKNQYQTRVIH
B5: UBE4A RING domain (UniProt Q14139); chain LQQQEEETYADACDEFLDPIMSTLMCDPVVLPSSRVTVDRSTIARHLLSDQTDPFNRSPLTMDQIRPNTELKEKIQRWLAERKQQKEQLE
Molecule | lacZ reporter activity
KRQCSDVDDICSICQAEFQKPILLICQHIFCEECMTLWFNREKTCPLCRTVISDHINKW (RNFT1 RING domain (UniProt Q5M7Z0)) | 0
LKQVSIRENCCSLCCDEVADTQLKPCGHSDLCMDCALQLETCPLCRKEIVSRIRQI (RSPRY1 RING domain (UniProt Q96DX4)) | 0
B1 (PHF7 RING domain) | 0
B2 (TRIM55 RING domain) | 0
KIKDLNEHIVCCLCAGYFVDATTITECLHTFCKSCIVKYLQTSKYCPMCNIKIHETQPLL (PCGF1 RING domain (UniProt Q9BSM1)) | 0
B3 (RNF112 RING domain) | 0
B4 (RNF32 RING domain) | 0
B5 (UBE4A RING domain) | 0
